Published values collected from several papers.
Parts stem from different laboratories: compare values within a part only.
UniProt P53355, sequence (whole entry, looked up): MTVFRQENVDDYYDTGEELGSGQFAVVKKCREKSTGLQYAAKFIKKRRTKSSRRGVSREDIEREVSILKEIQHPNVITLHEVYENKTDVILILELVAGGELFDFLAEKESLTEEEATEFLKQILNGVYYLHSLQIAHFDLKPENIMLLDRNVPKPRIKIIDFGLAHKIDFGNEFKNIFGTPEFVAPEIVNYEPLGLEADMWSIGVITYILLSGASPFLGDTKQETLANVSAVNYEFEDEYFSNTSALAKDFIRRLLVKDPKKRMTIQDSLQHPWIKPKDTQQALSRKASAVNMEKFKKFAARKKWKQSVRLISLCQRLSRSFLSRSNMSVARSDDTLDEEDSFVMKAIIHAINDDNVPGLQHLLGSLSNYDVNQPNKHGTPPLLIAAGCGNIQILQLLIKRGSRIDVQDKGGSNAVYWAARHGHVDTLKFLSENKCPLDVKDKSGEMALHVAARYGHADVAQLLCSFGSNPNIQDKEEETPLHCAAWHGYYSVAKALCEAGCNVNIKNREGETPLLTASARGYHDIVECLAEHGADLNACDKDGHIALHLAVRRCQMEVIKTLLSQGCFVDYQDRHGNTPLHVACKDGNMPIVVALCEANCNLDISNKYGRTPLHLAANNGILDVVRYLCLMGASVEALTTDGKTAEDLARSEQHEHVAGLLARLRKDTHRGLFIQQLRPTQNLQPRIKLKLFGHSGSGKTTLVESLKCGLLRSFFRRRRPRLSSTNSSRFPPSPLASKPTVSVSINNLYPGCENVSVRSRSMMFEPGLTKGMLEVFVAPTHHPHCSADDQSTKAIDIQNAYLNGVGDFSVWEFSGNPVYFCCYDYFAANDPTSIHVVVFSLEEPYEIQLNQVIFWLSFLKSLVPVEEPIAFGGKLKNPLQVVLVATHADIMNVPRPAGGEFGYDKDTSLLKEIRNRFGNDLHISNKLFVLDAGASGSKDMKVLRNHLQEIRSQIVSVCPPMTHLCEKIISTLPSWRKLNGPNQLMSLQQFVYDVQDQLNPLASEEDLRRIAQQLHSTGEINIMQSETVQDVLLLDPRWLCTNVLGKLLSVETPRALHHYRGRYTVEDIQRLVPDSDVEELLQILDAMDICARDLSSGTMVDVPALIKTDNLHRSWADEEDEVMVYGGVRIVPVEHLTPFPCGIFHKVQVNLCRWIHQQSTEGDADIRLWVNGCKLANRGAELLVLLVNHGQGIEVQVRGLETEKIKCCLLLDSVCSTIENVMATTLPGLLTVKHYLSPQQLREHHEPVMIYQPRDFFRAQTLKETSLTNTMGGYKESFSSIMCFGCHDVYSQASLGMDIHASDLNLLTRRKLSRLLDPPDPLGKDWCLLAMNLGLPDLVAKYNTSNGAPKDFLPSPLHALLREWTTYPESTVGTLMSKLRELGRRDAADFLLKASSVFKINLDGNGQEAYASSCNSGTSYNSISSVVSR
UniProt P42336, sequence (whole entry, unmodified, looked up): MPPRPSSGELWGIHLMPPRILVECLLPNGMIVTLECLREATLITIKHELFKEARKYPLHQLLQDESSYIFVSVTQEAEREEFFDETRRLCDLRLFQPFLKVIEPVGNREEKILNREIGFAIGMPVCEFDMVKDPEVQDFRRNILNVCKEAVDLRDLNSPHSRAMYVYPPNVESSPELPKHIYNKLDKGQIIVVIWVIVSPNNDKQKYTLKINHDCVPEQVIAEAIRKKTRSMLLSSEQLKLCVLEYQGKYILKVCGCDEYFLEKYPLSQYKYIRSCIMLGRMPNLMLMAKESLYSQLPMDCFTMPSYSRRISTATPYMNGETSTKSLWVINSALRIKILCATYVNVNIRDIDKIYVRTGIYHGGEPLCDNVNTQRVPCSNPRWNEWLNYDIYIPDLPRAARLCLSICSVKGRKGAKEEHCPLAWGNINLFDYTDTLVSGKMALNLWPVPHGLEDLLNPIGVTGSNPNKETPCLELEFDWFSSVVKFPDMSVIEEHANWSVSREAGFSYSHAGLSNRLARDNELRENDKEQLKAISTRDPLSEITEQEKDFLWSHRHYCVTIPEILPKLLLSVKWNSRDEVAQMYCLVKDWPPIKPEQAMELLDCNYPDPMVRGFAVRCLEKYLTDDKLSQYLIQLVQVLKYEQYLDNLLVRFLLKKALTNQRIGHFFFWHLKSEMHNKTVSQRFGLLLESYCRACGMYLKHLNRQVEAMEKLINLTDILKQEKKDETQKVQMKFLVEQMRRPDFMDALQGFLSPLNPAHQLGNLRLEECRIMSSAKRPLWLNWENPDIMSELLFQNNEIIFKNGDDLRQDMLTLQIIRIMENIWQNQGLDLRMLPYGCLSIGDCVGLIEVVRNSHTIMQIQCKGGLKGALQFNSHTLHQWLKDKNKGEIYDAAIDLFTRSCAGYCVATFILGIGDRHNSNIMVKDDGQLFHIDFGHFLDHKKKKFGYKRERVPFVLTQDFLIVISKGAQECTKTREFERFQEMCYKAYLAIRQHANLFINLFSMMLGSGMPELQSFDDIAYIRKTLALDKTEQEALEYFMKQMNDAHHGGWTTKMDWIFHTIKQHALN
UniProt P42338, sequence (whole entry, looked up): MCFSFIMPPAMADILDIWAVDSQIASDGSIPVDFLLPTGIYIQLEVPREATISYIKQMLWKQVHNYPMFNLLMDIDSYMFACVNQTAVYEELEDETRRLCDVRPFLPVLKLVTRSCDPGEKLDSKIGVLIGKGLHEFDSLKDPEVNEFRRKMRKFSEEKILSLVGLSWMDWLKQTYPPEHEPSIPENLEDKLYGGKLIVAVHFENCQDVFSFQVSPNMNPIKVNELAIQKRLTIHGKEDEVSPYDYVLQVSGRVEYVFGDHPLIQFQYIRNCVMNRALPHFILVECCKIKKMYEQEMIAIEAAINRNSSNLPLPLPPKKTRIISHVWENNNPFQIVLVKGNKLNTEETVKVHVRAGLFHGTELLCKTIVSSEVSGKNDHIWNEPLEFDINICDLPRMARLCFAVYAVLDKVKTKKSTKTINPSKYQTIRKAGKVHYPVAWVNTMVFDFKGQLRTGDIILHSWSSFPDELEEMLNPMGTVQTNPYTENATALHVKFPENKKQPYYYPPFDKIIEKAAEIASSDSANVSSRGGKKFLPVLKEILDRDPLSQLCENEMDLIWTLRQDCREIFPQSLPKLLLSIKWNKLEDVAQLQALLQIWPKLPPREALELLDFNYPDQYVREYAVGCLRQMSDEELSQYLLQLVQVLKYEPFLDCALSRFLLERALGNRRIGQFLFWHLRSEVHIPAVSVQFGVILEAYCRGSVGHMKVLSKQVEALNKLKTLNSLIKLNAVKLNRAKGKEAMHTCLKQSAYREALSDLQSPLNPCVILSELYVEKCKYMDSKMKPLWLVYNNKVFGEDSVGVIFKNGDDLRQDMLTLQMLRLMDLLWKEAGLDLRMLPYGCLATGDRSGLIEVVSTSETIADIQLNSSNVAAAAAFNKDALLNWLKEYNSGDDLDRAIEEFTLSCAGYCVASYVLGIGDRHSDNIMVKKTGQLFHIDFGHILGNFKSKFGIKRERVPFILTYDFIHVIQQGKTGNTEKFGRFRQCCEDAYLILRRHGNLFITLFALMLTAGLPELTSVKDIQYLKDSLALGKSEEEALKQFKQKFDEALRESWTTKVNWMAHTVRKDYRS
UniProt O94768, sequence (whole entry, looked up): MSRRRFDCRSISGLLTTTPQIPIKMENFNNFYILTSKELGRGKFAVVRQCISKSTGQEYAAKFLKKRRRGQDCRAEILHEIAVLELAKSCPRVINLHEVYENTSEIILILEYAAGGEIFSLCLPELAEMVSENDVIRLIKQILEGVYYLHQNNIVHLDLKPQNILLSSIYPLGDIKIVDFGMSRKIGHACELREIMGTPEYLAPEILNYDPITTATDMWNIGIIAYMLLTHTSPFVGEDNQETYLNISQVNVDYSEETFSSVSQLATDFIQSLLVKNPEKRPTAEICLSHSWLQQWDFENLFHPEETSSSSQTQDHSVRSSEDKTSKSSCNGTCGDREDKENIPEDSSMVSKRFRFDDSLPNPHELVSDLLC
UniProt Q9Y6E0, sequence (whole entry, looked up): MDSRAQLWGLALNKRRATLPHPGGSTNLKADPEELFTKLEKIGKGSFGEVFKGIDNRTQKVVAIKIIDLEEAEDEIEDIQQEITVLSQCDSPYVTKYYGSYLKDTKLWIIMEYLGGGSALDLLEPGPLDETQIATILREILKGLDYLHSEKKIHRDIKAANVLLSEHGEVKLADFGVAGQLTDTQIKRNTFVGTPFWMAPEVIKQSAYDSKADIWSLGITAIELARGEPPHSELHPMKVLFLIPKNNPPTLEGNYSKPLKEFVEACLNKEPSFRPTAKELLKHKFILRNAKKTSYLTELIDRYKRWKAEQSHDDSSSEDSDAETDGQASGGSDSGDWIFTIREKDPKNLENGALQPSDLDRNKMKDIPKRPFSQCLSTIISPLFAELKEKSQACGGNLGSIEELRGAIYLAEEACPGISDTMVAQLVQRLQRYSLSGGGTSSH

Sample 1 — observed: enzyme activity; action: inhibitor; tested at: 0.5 µM; reference: control
Target: Protein kinase C delta type (PRKCD, Homo sapiens, UniProt Q05655)
UniProt Q05655, sequence (whole entry, looked up): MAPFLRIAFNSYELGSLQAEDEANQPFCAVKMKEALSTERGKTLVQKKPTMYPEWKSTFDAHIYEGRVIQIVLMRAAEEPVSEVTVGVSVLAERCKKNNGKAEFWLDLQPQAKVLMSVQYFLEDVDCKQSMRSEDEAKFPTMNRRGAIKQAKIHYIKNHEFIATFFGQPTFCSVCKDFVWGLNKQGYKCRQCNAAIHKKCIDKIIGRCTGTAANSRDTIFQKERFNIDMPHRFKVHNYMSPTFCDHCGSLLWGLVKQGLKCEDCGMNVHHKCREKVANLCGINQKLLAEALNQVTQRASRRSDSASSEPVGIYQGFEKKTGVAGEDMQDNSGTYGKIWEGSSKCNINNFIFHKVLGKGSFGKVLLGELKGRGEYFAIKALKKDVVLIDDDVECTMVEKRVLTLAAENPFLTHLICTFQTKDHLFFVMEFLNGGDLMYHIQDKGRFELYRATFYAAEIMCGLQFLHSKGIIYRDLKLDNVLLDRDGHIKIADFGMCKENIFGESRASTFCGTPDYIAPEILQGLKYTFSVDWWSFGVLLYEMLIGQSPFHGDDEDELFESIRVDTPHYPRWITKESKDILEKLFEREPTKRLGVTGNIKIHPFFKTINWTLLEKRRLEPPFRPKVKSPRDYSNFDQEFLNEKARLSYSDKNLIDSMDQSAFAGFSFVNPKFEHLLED
With `O=S(=O)(c1cccc2cnccc12)N1CCCNCC1` the remaining activity was 84.7%.
`Nc1ccc2ncnc(NCCc3ccc(Oc4ccccc4)cc3)c2c1` has a remaining activity of 97.6%.
With `NCCNc1ncc(C(N)=O)c(Nc2cccc(C(F)(F)F)c2)n1` the remaining activity was 69.7%.
The remaining activity of `Cc1ccc(NC(=O)c2ccc(CN3CCN(C)CC3)cc2)cc1Nc1nc(-c2cccnc2)cs1` is reported as 97.9%.
`Cc1cccc(-c2[nH]c(C(C)(C)C)nc2-c2ccc3c(c2)OCO3)n1` gave a remaining activity of 104%.
With `Nc1[nH]nc2nc3ccccc3nc12` the remaining activity was 98.3%.
`Cc1nc(-c2ccccc2)c(-c2ccncc2)o1` has a remaining activity of 96.2%.
`COc1ccc(C(=O)Nc2sc3c(c2C(N)=O)CCCC3)cc1OC` has a remaining activity of 81.8%.
`C#Cc1cccc(Nc2ncnc3cc(OCCOC)c(OCCOC)cc23)c1` gave a remaining activity of 104%.
With `CO[C@H]1C[C@@H]2CC[C@@H](C)[C@@](O)(O2)C(=O)C(=O)N2CCCC[C@H]2C(=O)O[C@H]([C@H](C)C[C@@H]2CC[C@@H](O)[C@H](OC)C2)CC(=O)[C@H](C)/C=C(\C)[C@@H](O)[C@@H](OC)C(=O)[C@H](C)C[C@H](C)/C=C/C=C/C=C/1C` the remaining activity was 102%.
`COc1cc2ncnc(Nc3ccc(F)c(Cl)c3)c2cc1OCCCN1CCOCC1` has a remaining activity of 106%.
With `O=C(Nc1cccc(Nc2cc(Nc3cccc(C(F)(F)F)c3)ncn2)c1)C1CC1` the remaining activity was 101%.

Sample 2 — observed: cell-free assay; method: competition with immobilised ligand; tested at: 1 µM
SMILES: O=C1NC(c2ccccn2)Sc2ccccc21 (centres unmarked)
The remaining binding was 100% (PIK3CB (Homo sapiens, UniProt P42338)).
For STK24 (Homo sapiens, UniProt Q9Y6E0): remaining binding read 94%.
The remaining binding was 73% (STK17B (Homo sapiens, UniProt O94768)).
It gave 81% for remaining binding (FLT3 (Homo sapiens, UniProt P36888, R834Q)).
It gave 72% for remaining binding (MAPK6 (Homo sapiens, UniProt Q16659)).
For PIK3CA (Homo sapiens, UniProt P42336, E545A): remaining binding read 97%.
For EGFR (Homo sapiens, UniProt P00533, G719C): remaining binding read 87%.
The remaining binding was 79% (PI4KB (Homo sapiens, UniProt Q9UBF8)).
The remaining binding was 78% (LIM domain kinase 1 (LIMK1, Homo sapiens, UniProt P53667)).
The remaining binding was 79% (PTK2 (Homo sapiens, UniProt Q05397)).
The remaining binding was 78% (PRPF4B (Homo sapiens, UniProt Q13523)).
It gave 81% for remaining binding (LRRK2 (Homo sapiens, UniProt Q5S007, G2019S)).
For DAPK1 (Homo sapiens, UniProt P53355): remaining binding read 100%.

Sample 3 — method: RNA Bind-n-Seq; molecule type: RNA; matrix: in vitro; tested at: 365 nM; reference: no-protein control; reading: higher = stronger binding
Target: RNA binding protein fox-1 homolog 2, RRM domain, GST-SBP tag (RBFOX2, Homo sapiens, UniProt O43251-10, residues 100-194)
Setting: natural RNA segment, single round, ends assumed
Constant ends, left off below: GGGAGUUCUACAGUCCGACGAUC … UGGAAUUCUCGGGUGCCAA
Construct (chain): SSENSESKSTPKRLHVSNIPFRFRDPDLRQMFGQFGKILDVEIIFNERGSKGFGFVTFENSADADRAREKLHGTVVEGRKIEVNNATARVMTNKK
`CAGCUGCCCCGAUUGUGGCAAGACCUUCAACCGCUCCUCUACACUCAUUCAGCACCAGCGUUCCCACACAGGCGAGAGGCCGUACCGCUGCGCUGUGUGUGGCAAGGGCU`: “RBNS enrichment (R)” 0.6.
For `CACGUGCGCCUUCAUAGCCCAGCCAAGGGCAUGCAGGCAGGGUGUGCUGCCUGAGAUGGCACCUCCCUUUCAGCCAUUCUUCAAGAAUGGGCCACACACAGCUAGAAGUC`, “RBNS enrichment (R)” read 0.272.
`UUCUGGUUUGUCCUGAAGGCAGCAGGCCCCUGGUGUUGAACUUUGGCAGUUGCACCUGACCUUCAUUUCUUCUCAAAUUUGACCAGUUCAAGAGACUCGUAGAUGACUUU`: “RBNS enrichment (R)” 0.329.
`AGCUCUCUGUCCAACUGUUGAUUAUGUGAUUUUUCUGAUACGUCCAUUCUCAAAUGCCAGUGUGUUCACAUCUUCGCUCUGGCCAGCCCAUUCUGUAUUUAAAGCUUUUG`: “RBNS enrichment (R)” 0.455.
Under “RBNS enrichment (R)”, `UUAGUUUUCUUUGCCCUUUCCAUGUUGUAGGCUACAUACAUCUCCAUGUUCAUUCUCAUGUUUUUUGUCAGUGUGACCUUCUCAUGCCCUGUCAUGAUAGAGCUGUAAUU` is recorded as 0.35.
For `GCAAAAUUCGGAGACUUUGAUCUUUGCUACUGGAGUCCUUUAACAACAUCUAUAACGAUAAAAAAUUCCUAAUUGUUUGUGGUAGUAUUUUAAUUCUAGAUGUGUUAUCU`, “RBNS enrichment (R)” read 0.918.
`CUGUGGAACUUAAAGAAUGUGAAAGCUGUCAAAGGGUAUUUUACGAAUCACUUUUGUGUUUGAUAUAGUAAAACAAUGUGAUUCAUUCCAAAGUAACAGAAGGUUAUUUG` — result for “RBNS enrichment (R)”: 1.88.
For `AUUUAGAUGGAAUCUUACCACGACUUGAGGCUAGGACCACCCACUUCCUCUUUCCCAGCCCUAUUUCUGGGAUCCCAGAGGGGCAGGGGUGGUGGAGGCGGUGCCGGGAC`, “RBNS enrichment (R)” read 0.202.

Sample 4 — method: RNA Bind-n-Seq; molecule type: RNA; matrix: in vitro; tested at: 20 nM; setting: 6-mer, flanks averaged, single round; with: 150 mM LiCl; reference: input library; reading: higher = stronger binding
Target: TAR DNA-binding protein 43, full length, His tag (TARDBP, Homo sapiens, UniProt Q13148, residues 1-414)
Under “6-mer enrichment (R)”, `ACCCAU` is recorded as 0.973.
`AUUGUU` — result for “6-mer enrichment (R)”: 1.07.
Under “6-mer enrichment (R)”, `UUCUUU` is recorded as 1.21.
`UUAUAG`: “6-mer enrichment (R)” 0.995.
`AUAUGG`: “6-mer enrichment (R)” 1.04.
`UCACGG` — result for “6-mer enrichment (R)”: 0.842.
For `UAUGCA`, “6-mer enrichment (R)” read 1.02.
Under “6-mer enrichment (R)”, `GGCGCG` is recorded as 1.16.

Repeated from above (sample 3):
For `CACGUGCGCCUUCAUAGCCCAGCCAAGGGCAUGCAGGCAGGGUGUGCUGCCUGAGAUGGCACCUCCCUUUCAGCCAUUCUUCAAGAAUGGGCCACACACAGCUAGAAGUC`, “RBNS enrichment (R)” read 0.272.
`UUCUGGUUUGUCCUGAAGGCAGCAGGCCCCUGGUGUUGAACUUUGGCAGUUGCACCUGACCUUCAUUUCUUCUCAAAUUUGACCAGUUCAAGAGACUCGUAGAUGACUUU`: “RBNS enrichment (R)” 0.329.
`AGCUCUCUGUCCAACUGUUGAUUAUGUGAUUUUUCUGAUACGUCCAUUCUCAAAUGCCAGUGUGUUCACAUCUUCGCUCUGGCCAGCCCAUUCUGUAUUUAAAGCUUUUG`: “RBNS enrichment (R)” 0.455.
Under “RBNS enrichment (R)”, `UUAGUUUUCUUUGCCCUUUCCAUGUUGUAGGCUACAUACAUCUCCAUGUUCAUUCUCAUGUUUUUUGUCAGUGUGACCUUCUCAUGCCCUGUCAUGAUAGAGCUGUAAUU` is recorded as 0.35.
